Measured values pooled from the literature.
Protocols differ between the studies behind these lines. Values joined by “and” are separate records of one study, mostly repeats; a detail may differ. Numbers after ± are the reported error.

Compound | tested on | assay | system | conditions | scale | endpoint | result
Cc1cc(NS(=O)(=O)c2ccc(NC(=O)/C(C#N)=C/c3ccc(N4CCCCC4)cc3)cc2)no1 | HCT-116 | qRT-PCR, measured: Bcl-2 | – | concentration not given | baseline: untreated | mRNA level decrease | 3.3 fold
COc1ccccc1OCC(=O)N/N=C/C=C/c1ccc([N+](=O)[O-])o1 | LDR | silenced CMV-GFP reporter derepression, qHTS | – | – | – | efficacy | 83%
CCn1cc(-c2cc(Cn3ccoc3=N)cc3c2CCN([C@@H](C)c2cc(OC)ccn2)C3=O)c(C(F)(F)F)n1 | WM-115 | cell growth, inhibitor | – | 120 h | – | EC50 | 0.0433 µM
O=C(C[C@@H](C(F)F)n1ccc(F)n1)N1CCC(O)(Cn2cnc3c(cnn3-c3ccc(F)cc3)c2=O)CC1 | CHP-212 parental (wild-type USP7) | annexin V-PI flow cytometry | – | 1 µM, 48 h | – | early apoptotic cells (annexin V+/PI-) | 17.4% and 16.1% and 19.4%
C[C@]12CCCN1CC1=NNC(=O)c3cc(F)cc4[nH]c2c1c34 | HCT-8 colorectal cancer cells | cell viability | – | concentration not given, added: with temozolomide | – | EC50 | > 3 µM
CC(=O)Nc1cccc(-n2c(=O)n(C3CC3)c(=O)c3c(Nc4ccc(I)cc4F)n(C)c(=O)c(C)c32)c1 | MeWo (NF1) | cell viability, resazurin | – | 50.00 nM, 72 h | baseline: DMSO | average fractional effect | 46%
O=P1(C2CCCCC2)CCCCC1 | HaCaT | Annexin V-FITC/PI flow cytometry | – | IC50, 72 h | – | late apoptotic cells | 0.95%
Cc1cccc(-c2[nH]c(CNc3ccccc3F)nc2-c2ccc3ncnn3c2)n1 | MM1.S | XTT | – | 0.6 µM | – | viability | 95% and 82% and 68%
O=C(O)COCC(=O)O | iPSC-derived hepatocytes B1 | cell viability | – | 24 h, differentiation day 23 | – | IC50 | 11600 µM
COc1cc(/C=C/C(=O)N2CCC=CC2=O)cc(OC)c1OC | MDA-MB-468 | qRT-PCR, measured: PARK7 | – | 30 µM, 6 h | baseline: time zero | mRNA level | 83.9 ± 5.4%
C=CC(=O)N1CCC[C@@H](n2nc(-c3ccc(Oc4ccccc4)cc3)c3c(N)ncnc32)C1 | RL | cell growth | – | 72 h | – | GI50 | 18.4 µM
CCc1ccc(NC(=O)Nc2c[nH]c3ccccc23)cc1 | RAW-ISG | western blot | – | concentration not given, added: poly(I:C) | baseline: vehicle | phospho-TBK1/TBK1 ratio | 0.56
CCCCc1oc2ccc(NS(C)(=O)=O)cc2c1C(=O)c1ccc(OCCCN(CCCC)CCCC)cc1 | human embryonic stem cell aggregates | mRNA level, microarray, measured: GDF10 | – | 0.5 µM, 120 h | baseline: untreated, up-regulated | fold change | 1.9 fold
CCCCCCCCCCCCCCC/C(NCc1ccccc1)=C1/C(=O)OC(CO)C1=O (centres unmarked) | G2-synchronized tsFT210 cells | flow cytometry | – | 50 µM, 4 h, 32 °C, release from G2 arrest | – | G2/M phase cells | 60.3%
C=CC1=C(C)c2cc3[n-]c(cc4nc(cc5[n-]c(cc1n2)c(C)c5C=C)C(C)=C4CCC(=O)O)c(CCC(=O)O)c3C.[Zn+2] | SH-SY5Y | RNA-seq, measured: HSPB8 mRNA | – | 5 µM, 5 h | baseline: untreated cells | fold change | 1.85
Cc1nc(N(Cc2ccccc2)c2ccc3c(c2)/C(=C/c2ccccc2)C(=O)N3Cc2ccccc2)c2ccccc2n1 (mixture of isomers) | LLC | – | – | 2.0 µM, 24 h | baseline: untreated | reduction of wound healing rate | 38.1%
Cc1ccc(NC(=O)c2c(C)nc3sc(C(=O)NC4CCCC4)c(N)c3c2-c2ccco2)c(C)c1 | LDR | silenced CMV-GFP reporter derepression, qHTS | – | – | – | efficacy | 38%
Cl.Cl.NCCNS(=O)(=O)c1ccc(Cl)c2ccncc12 | SK-OV-3 | ATP | 2D monolayer culture | 0.1 µM, 4 days | baseline: untreated | relative cell number | 119%
Cn1cnc2c1c(=O)n(CC(=O)Nc1c(Cl)cccc1Cl)c(=O)n2C | Vero | MTT | – | 500 µg/mL | – | cytotoxicity | 74.7%
O=S(=O)(NNc1nnc(Cl)c2ccccc12)c1ccc(F)cc1 | Vero | MTT | – | 1000 µg/mL | – | cytotoxicity | 97.6%
C[C@H](Nc1ccc2c(c1)OCCn1cc(N3C(=O)OC[C@H]3C(F)F)nc1-2)C(N)=O | MDA-MB-361 | cell growth, CellTiter-Glo | – | 120 h | – | Hill coefficient GR curve | 1.14
COc1ccc(C(=O)/C=C/Sc2nc3ccccc3o2)cc1 | LDR | silenced CMV-GFP reporter derepression, qHTS | – | – | – | efficacy | 78%
CSc1cc(Oc2ccnc3[nH]c(=O)cnc23)ccc1NC(=O)Nc1cc(C(C)(C)C)nn1-c1ccccc1 | patient-derived cell line | reverse phase protein array | human | 1 µM, 4 h | baseline: DMSO | phosphorylated STAT5 level | 0.48
Cc1ccccc1OCCn1cnc2cc([N+](=O)[O-])ccc2c1=O | LDR | silenced CMV-GFP reporter derepression, qHTS | – | – | – | efficacy | 23%
COc1cnc2cccc(N3CCc4c(cc(Cn5ccnc5C)cc4-c4cn(C)nc4C(F)(F)F)C3=O)c2c1 | SW480 | cell growth, inhibitor | – | 120 h | – | EC50 | 19 µM

Compound | tested on | assay | system | conditions | scale | endpoint | result
Cc1cc(Nc2ncc(Cl)c(Nc3ccccc3S(=O)(=O)C(C)C)n2)c(OC(C)C)cc1C1CCNCC1 | CLB-GE | phosphoproteomics LC-MS/MS, measured: BOD1L phosphorylation | – | 200 nM, 60 min | baseline: untreated | log2 fold change | -1.62
NS(=O)(=O)OC[C@H]1C[C@@H](Nc2ccnc3cc(-c4cccc(SC(F)(F)F)c4)nn23)[C@H](O)[C@@H]1O | HiBiT-BRD4 LgBiT cells | – | – | 0.1 µM, 24 h, no PROTAC | – | decrease in BRD4 level | 50%
O=c1[nH]nc(OCCCc2ccc(Cl)cc2)c(NCc2cccnc2)c1Br | HEK293T | RNA-seq, measured: CLU mRNA | – | 10 µM, 6 h | baseline: vehicle | log2 fold change | 0.337
Cc1cnc2ccc3c(c2n1)N1CCC(O)N=C1N3C (centres unmarked) | BALB/c 3T3 | colony forming efficiency | – | 100 µM | – | colony number | 0 colonies per plate
CC/C(=N\NC(=O)NCc1cccc(O)c1)c1ccc(O)c(C)c1O | SK-OV-3 | Western blot | – | 10 µM, 3 h, 3D gellan gum culture, unit not given | baseline: DMSO | TAZ band intensity | 0.09 ± 0.04
O=[N+]([O-])c1ccc(-c2ccc(/C=N/Nc3nc(N4CCCCC4)nc(N4CCCCC4)n3)o2)cc1 | LDR | silenced CMV-GFP reporter derepression, qHTS | – | – | – | efficacy | 29%
COc1cc2ncnc(Nc3ccc(Oc4ccccc4)cc3C)c2cc1OC | MeWo (NF1) | resazurin | – | 1 µM, 72 h, added: trametinib 0 nM | – | viability | 92.1%
CC(=O)c1nn(-c2ccc(Cl)cc2)/c(=N/N=C(\C)c2ccc(NC(=O)c3ccc(C)cc3)cc2)s1 | HepG2 | – | – | 2.5 µM | – | toxicity | 97.2%
Cc1cccn2c(=O)c(/C=C3\SC(=S)N(CC(C)C)C3=O)c(NCCCOC(C)C)nc12 | LDR | silenced CMV-GFP reporter derepression, qHTS | – | – | – | efficacy | 29%
O=C(/C=C/C=C/C=C/C1CCCCC1)NC1=C[C@@](O)(/C=C/C=C/C=C/C(=O)NC2=C(O)CCC2=O)[C@@H]2O[C@@H]2C1=O | NCI-H1838 | cell growth, CellTiter-Glo | – | 78 h | – | GI50 | > 30 µM
Nc1ncnc2c1ncn2[C@@H]1O[C@H](CO)[C@@H](O)[C@H]1O | activated human T cells | measured: hypoxanthine | – | 10 µM | baseline: DMSO | log2 fold change | 1.6 and 2
Cn1cc(-c2ccc(-c3cncc(Cl)c3N3CCC4(CCNC4=O)CC3)cc2)cn1 | COLO 205 | gene expression, microarray, measured: HIF1A mRNA | – | concentration not given, 2 h | baseline: untreated cells | log2 fold change | -1.05
C=CCn1c(=O)c2cnc(Nc3ccc(N4CCN(C)CC4)cc3)nc2n1-c1ccc2c(n1)[C@@](O)(CC)CC2 | Kuramochi | flow cytometry | – | concentration not given, EdU-negative S phase | – | γH2AX-positive cells | 35%
Clc1nc(NCc2ccco2)c2[nH]cnc2n1 | FD iPSC-derived cardiomyocytes | alternative splicing, RNA-seq, measured: FANCL exon chr2(-):58162865-58162947 | – | unit not given | baseline: DMSO minus compound | ΔPSI | -0.302
COC(=O)COc1c(Cc2cc(C(C)(C)CC(C)(C)C)cc(-n3nc4ccccc4n3)c2OCC(=O)OC)cc(C(C)(C)CC(C)(C)C)cc1-n1nc2ccccc2n1 | Vero | MTT | – | 100 µM, 48 h | – | growth inhibition | 10.5 ± 0.99%
CC(C)NCC(O)c1ccc(O)c(O)c1 (centres unmarked) | mouse ventricular cardiomyocytes | – | – | dose not given, 0.047 s | – | sarcomere length | 1.8 µm
Nc1nc2c(ncn2[C@@H]2O[C@@H]3COP(=O)(O)O[C@H]3[C@H]2O)c(=O)[nH]1 | – | binding, MIDAS equilibrium dialysis LC-MS | A2AR-BRIL thermostabilized | concentration not given | baseline: no-protein control | log2 fold change | 0.173
CCCS(=O)(=O)Nc1ccc(F)c(C(=O)c2c[nH]c3ncc(-c4ccc(Cl)cc4)cc23)c1F | SK-MEL-239 C4 (p61 BRAF V600E) | ERK phosphorylation, Western blot | – | 1 h | – | IC75 | 13.5 µM
Cc1nn(-c2nc3c(F)cc(F)cc3s2)c(O)c1C(c1ccc(C(F)(F)F)cc1)c1c(C)nn(-c2nc3c(F)cc(F)cc3s2)c1O | RAW-ISG | IFN luciferase reporter | – | 5 µM, added: HT-DNA | – | inhibition | 73.3% and 73.2% and 72.5% and 75.9% and 74.8% and 75.6%
CC[C@H](C)[C@H](NC(=O)[C@H](CCCCN)NC(=O)[C@@H](NC(=O)[C@H](CCCNC(=N)N)NC(=O)[C@@H](NC(=O)[C@@H](CCCNC(=N)N)NC(=O)[C@@H](CCCNC(=N)N)NC(=O)[C@@H](CCCNC(=N)N)NC(=O)[C@@H](CCCNC(=N)N)NC(=O)[C@@H](CCCNC(=N)N)NC(=O)[C@H](N)CCCNC(=N)N)[C@@H](C)O)[C@@H](C)O)C(=O)N[C@@H](CC(=O)O)C(=O)N[C@@H](Cc1c[nH]c2ccccc12)C(=O)NC(C)(C)C(=O)N[C@@H](CCCCN)C(=O)N[C@H](C(=O)N[C@@H](CC(C)C)C(=O)NC(C)(C)C(=O)N[C@@H](CCCCN)C(=O)NCCCCCC(=O)NCCCC[C@H](NC(=O)CCCCCNC(=O)[C@H](CCCCN)NC(=O)C(C)(C)NC(=O)[C@H](CC(C)C)NC(=O)[C@@H](NC(=O)[C@H](CCCCN)NC(=O)C(C)(C)NC(=O)[C@H](Cc1c[nH]c2ccccc12)NC(=O)[C@H](CC(=O)O)NC(=O)[C@@H](NC(=O)[C@H](CCCCN)NC(=O)[C@@H](NC(=O)[C@H](CCCNC(=N)N)NC(=O)[C@@H](NC(=O)[C@@H](CCCNC(=N)N)NC(=O)[C@@H](CCCNC(=N)N)NC(=O)[C@@H](CCCNC(=N)N)NC(=O)[C@@H](CCCNC(=N)N)NC(=O)[C@@H](CCCNC(=N)N)NC(=O)[C@H](N)CCCNC(=N)N)[C@@H](C)O)[C@@H](C)O)[C@@H](C)CC)[C@@H](C)CC)C(N)=O)[C@@H](C)CC | SK-MEL-5 | flow cytometry | – | 10 µM, 6 h | – | apoptotic cells | 57%
CC(C)(c1ccc(O)cc1)c1ccc(O)cc1 | HepG2 spheroids | Hoechst flow cytometry | – | 0.1 µM, 24 h | – | G2 phase cells | 20.7 ± 4.97%
CCCCN1C[C@H](O)[C@@H](O)[C@@H](O)[C@H]1CO | sample A patient fibroblasts | Gb3 level lowering, LC-MS/MS, measured: Gb3 d18:1/16:0 | – | 216 h | – | IC50 | 9.8 µM
CN(C)c1ccccc1/C=C1\SC(N2CCCCC2)=NC1=O | NG108-cl | clomeleon fluorescence, measured: intracellular chloride reduction | – | 5 h | – | EC50 | inactive
Cn1cc(Nc2nccc(-c3ccc4c(c3)CN(C3COC3)CC[C@H]4NC(=O)c3cn(C(C)(C)C)nn3)n2)cn1 | mouse splenic B cells | measured: TWEAK signalling | – | 30 mg/kg, IgD-activated in vivo | baseline: vehicle, direction not given | pathway activation z-score | 2.53
CCn1cc(-c2cc(Cn3ccnc3)cc3c2CCN([C@H](c2cc(OC)ccn2)C2CC2)C3=O)c(C(F)(F)F)n1 | Panc 04.03 | cell growth | – | 120 h | – | EC50 | 0.773 µM
